# Measurements collected from several papers.
# ± marks the error that the study gave.
# MAPK14: Mitogen-activated protein kinase 14 (MAPK14, Homo sapiens, UniProt Q16539)
# PIK3CG: Phosphatidylinositol 4,5-bisphosphate 3-kinase catalytic subunit gamma isoform (PIK3CG, Homo sapiens, UniProt P48736)
# Sequence of UniProt P48736 (whole entry, looked up): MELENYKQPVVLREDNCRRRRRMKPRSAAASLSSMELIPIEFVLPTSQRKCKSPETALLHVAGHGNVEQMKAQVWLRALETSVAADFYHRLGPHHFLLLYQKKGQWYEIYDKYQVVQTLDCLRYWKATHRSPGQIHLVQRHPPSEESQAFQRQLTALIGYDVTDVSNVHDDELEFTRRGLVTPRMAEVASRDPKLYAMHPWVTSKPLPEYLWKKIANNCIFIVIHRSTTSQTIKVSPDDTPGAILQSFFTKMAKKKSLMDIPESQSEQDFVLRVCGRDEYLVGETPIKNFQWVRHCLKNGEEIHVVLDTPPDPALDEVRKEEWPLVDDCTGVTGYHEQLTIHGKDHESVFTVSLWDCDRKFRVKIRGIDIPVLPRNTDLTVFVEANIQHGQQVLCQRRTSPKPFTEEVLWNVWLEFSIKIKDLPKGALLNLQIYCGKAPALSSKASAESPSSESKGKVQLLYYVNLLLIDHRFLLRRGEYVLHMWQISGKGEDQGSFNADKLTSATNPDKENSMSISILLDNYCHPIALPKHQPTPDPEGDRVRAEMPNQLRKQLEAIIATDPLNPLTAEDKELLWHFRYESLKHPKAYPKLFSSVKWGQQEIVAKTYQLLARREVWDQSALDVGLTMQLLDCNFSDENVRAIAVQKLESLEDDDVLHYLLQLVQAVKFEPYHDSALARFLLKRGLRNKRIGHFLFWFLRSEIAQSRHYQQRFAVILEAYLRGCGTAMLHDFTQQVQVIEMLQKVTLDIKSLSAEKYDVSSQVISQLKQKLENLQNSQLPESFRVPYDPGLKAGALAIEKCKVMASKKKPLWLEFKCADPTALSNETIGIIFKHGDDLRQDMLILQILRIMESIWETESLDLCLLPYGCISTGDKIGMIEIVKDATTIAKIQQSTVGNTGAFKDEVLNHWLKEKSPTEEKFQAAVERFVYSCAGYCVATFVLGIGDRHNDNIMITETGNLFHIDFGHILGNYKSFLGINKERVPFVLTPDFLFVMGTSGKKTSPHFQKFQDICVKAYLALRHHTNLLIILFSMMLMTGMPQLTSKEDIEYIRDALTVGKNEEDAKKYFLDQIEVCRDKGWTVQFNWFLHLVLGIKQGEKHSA
# PPARA ligand-binding domain: Peroxisome proliferator-activated receptor alpha, ligand-binding domain (PPARA, Homo sapiens, UniProt Q07869)
# Sequence of UniProt Q07869 (whole entry, looked up): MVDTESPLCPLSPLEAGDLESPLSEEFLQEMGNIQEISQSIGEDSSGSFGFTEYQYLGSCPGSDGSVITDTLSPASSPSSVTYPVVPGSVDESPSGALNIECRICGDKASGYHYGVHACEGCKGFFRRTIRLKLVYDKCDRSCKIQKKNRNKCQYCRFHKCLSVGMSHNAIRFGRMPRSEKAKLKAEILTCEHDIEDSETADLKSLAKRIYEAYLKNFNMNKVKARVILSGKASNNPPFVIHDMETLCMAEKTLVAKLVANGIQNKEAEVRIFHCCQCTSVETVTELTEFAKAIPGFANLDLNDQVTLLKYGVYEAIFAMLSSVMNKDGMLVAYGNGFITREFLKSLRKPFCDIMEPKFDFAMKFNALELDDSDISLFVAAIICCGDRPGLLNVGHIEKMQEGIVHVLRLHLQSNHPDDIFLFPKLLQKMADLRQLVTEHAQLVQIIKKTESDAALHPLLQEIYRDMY
# GBA2: Beta-glucosidase (GBA2, Homo sapiens, UniProt Q9HCG7)
# Sequence of UniProt Q9HCG7 (whole entry, looked up): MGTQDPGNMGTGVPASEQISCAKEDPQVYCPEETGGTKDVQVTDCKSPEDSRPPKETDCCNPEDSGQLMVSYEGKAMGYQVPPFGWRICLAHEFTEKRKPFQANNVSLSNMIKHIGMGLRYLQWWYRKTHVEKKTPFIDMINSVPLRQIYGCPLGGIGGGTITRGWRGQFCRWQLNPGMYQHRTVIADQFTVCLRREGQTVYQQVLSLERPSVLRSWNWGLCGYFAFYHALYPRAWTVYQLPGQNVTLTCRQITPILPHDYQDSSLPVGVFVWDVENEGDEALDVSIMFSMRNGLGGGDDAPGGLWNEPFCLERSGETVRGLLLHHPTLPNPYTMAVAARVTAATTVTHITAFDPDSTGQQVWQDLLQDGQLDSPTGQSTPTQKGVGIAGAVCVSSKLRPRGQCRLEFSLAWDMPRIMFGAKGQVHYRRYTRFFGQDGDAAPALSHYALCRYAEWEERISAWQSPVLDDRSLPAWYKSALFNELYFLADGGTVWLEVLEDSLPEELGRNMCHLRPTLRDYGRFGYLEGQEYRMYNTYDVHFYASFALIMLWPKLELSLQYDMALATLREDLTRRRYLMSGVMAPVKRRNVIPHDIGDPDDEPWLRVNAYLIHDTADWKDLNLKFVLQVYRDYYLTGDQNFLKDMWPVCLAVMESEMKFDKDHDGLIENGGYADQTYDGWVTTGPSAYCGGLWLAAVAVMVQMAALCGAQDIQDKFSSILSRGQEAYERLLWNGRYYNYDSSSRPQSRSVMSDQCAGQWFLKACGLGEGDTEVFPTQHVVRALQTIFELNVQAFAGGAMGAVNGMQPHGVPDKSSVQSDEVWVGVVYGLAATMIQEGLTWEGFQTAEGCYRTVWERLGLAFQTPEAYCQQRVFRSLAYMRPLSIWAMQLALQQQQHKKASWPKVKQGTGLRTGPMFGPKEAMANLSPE
# PIP4K2C: Phosphatidylinositol 5-phosphate 4-kinase type-2 gamma (PIP4K2C, Homo sapiens, UniProt Q8TBX8)
# Sequence of UniProt Q8TBX8 (whole entry, looked up): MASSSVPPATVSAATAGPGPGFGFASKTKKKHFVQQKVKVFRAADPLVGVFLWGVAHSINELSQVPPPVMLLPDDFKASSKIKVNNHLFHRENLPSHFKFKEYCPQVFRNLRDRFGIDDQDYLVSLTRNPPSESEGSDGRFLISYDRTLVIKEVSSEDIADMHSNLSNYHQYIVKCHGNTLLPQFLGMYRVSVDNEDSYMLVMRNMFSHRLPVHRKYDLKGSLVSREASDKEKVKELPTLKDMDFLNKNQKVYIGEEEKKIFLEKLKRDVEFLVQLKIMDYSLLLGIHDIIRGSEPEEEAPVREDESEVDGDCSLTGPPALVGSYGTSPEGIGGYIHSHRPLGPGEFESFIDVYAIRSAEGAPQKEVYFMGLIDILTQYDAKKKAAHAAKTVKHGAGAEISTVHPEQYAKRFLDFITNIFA
# IAPP: Islet amyloid polypeptide (IAPP, Homo sapiens, UniProt P10997)
# Sequence of UniProt P10997 (whole entry, looked up): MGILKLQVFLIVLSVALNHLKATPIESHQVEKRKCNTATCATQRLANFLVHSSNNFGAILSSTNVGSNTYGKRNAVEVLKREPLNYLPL
# Chymotrypsinogen A: Chymotrypsinogen A (Bos taurus, UniProt P00766)
# Sensor histidine kinase AirS: Sensor histidine kinase AirS (Staphylococcus aureus, UniProt Q2FX96)
# Sequence of UniProt P30874 (whole entry, looked up): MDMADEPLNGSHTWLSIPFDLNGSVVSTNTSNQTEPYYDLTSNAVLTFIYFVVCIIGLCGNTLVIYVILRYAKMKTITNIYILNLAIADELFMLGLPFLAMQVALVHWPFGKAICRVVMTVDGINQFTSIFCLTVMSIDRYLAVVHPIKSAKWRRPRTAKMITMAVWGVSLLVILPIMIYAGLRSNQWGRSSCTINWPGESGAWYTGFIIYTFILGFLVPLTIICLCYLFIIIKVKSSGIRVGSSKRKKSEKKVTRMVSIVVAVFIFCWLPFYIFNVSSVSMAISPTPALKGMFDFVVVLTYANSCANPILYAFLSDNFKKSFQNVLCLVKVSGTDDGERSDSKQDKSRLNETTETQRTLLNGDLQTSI
# Sequence of UniProt P04746 (whole entry, looked up): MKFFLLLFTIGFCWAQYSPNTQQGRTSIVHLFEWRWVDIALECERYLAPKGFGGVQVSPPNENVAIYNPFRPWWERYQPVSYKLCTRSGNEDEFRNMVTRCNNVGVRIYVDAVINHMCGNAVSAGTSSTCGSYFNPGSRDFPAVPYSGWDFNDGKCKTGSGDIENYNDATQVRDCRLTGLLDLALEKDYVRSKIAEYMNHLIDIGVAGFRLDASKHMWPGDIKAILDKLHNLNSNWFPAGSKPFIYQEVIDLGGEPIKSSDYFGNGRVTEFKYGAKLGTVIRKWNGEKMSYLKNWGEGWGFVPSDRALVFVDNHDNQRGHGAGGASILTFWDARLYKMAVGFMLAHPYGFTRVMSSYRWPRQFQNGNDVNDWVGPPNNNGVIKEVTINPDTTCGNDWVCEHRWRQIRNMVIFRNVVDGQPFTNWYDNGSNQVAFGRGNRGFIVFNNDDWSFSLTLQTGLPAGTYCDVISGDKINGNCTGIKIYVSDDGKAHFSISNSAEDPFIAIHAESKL
# Sequence of UniProt P07949 (whole entry, looked up): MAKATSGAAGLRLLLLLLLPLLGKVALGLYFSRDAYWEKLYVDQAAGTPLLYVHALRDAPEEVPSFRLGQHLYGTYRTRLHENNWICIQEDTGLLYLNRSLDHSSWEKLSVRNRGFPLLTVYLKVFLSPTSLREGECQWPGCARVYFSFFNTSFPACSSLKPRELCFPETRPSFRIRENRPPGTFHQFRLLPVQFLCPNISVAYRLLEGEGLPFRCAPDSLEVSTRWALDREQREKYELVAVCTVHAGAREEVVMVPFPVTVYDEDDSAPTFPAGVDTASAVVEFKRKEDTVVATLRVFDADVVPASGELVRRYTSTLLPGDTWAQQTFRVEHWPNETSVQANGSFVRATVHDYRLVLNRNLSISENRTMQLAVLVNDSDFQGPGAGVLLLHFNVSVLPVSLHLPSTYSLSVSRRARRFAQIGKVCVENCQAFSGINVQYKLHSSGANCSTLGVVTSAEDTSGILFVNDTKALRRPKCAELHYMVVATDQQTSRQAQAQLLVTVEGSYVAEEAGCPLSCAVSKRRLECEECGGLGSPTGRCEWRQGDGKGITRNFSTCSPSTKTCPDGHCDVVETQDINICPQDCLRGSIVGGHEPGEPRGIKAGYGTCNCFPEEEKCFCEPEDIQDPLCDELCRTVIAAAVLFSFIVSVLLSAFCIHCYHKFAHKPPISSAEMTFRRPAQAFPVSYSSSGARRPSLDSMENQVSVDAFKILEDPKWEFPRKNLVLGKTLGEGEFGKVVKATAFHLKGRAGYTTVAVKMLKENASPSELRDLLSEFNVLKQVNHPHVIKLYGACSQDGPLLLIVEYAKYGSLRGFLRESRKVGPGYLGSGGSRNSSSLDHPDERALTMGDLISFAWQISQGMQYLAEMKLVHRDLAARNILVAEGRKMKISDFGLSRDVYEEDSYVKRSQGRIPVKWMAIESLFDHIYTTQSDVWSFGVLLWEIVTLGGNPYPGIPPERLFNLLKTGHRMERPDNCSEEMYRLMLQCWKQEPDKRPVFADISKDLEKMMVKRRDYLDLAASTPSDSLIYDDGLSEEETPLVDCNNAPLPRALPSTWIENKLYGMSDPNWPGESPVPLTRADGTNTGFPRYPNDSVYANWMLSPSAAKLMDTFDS
Structure (SMILES),target,test,system,setting,IC50 [µM]
CNC(=O)C[C@H](Cc1ccc(C#N)cc1)NC(=O)c1cc(-c2ccc(CN[C@H](C)c3ccc(C)cc3)o2)ccc1Cl,"ATPase family AAA domain-containing protein 2, bromodomain (ATAD2, Homo sapiens, UniProt Q6PL18)","binding, TR-FRET",,"added: peptide, histone H4, tetra-acetylated",15.5
O=C1Nc2c(Br)cccc2/C1=C1/Nc2ccccc2C1=NO,MAPK14,,,,> 10
CCOc1cc(CN2CC3(CC(N4CCC(C(=O)O)CC4)=NO3)C2)cc(OCC)c1-c1ccc(F)cc1,"SSTR5 (Homo sapiens, UniProt P35346, I202A)","cAMP level, antagonist, GloSensor",AD293,"I202A mutant, bandwidth 5.39, added: CST17 EC80 and forskolin",1.58
O=C1/C(=N\c2ccc(Cl)cc2Br)c2ccccc2N1C(=O)c1ccccc1Br,PIK3CG,"enzyme activity, inhibitor, ADP detection",,,0.00854
Cc1c(Cc2ccc(OC(C)C(=O)O)cc2)c2ccc(C(=O)N[C@@H](C)c3ccc(C(C)(C)C)cc3)cc2n1C (stereo partly shown),PPARA ligand-binding domain,"reporter gene, luciferase reporter","HEK293T, Gal4-PPARα LBD",,2.46
OC[C@H]1[C@@H](O)[C@H](O)[C@@H](O)CN1CCCCCOCC(COCCCCCN1C[C@H](O)[C@@H](O)[C@H](O)[C@@H]1CO)C12CC3CC(CC(C3)C1)C2 (stereo partly shown),GBA2,"inhibitor, 4MU-β-D-glucopyranoside",HEK293T homogenates overexpressing GBA2,,0.15
O=C1/C(=N\c2ccccc2Br)c2ccccc2N1Cc1ccc([N+](=O)[O-])cc1,PIK3CG,"enzyme activity, inhibitor, ADP detection",,,0.00032
Cc1cc(C)nc(SCC(=O)Nc2ncc(Cc3cccc(OCc4cn(-c5ccc(Cl)cc5)nn4)c3)s2)n1,"SIRT2 (Homo sapiens, UniProt Q8IXJ6)","enzyme activity, inhibitor, fluorescence",,,0.11
CCCCCCCOCCCCCN1C[C@H](O)[C@@H](O)[C@H](O)[C@@H]1CO,GBA2,"inhibitor, 4MU-β-D-glucopyranoside",HEK293T homogenates overexpressing GBA2,,0.015
Nc1ncc2c(n1)-c1c([nH]c3ccc(C#Cc4ccncc4)cc13)CCC2,PIP4K2C,"target engagement in cells, BRET",,,7.2
Cc1c(Cc2cccc(OC(C)C(=O)O)c2)c2ccc(C(=O)NC(C)c3cccc(C4CC4)c3)cc2n1C (mixture of isomers),PPARA ligand-binding domain,"reporter gene, luciferase reporter","HEK293T, Gal4-PPARα LBD",,25.2
CN(C)c1ccc(/N=N/c2ccccc2C(=O)OCCCCN)cc1,IAPP,"ThT displacement, ThT fluorescence",,"pH 7.4, preformed target-ThT complex, added: 5 µM ThT",0.75
C[C@@H](O)[C@@H]1NC(=O)[C@H](CCCCN)NC(=O)[C@@H](Cc2c[nH]c3ccccc23)NC(=O)[C@H](Cc2ccc(NC(N)=O)cc2)NC(=O)[C@H](NC(=O)[C@@H](N)Cc2ccc(Cl)cc2)CSSC[C@@H](C(=O)N[C@@H](Cc2ccc3ccccc3c2)C(N)=O)NC1=O,"SSTR2 (Homo sapiens, UniProt P30874)","ligand displacement, radioligand",,,< 0.01
O=C(Nc1cccc2c1OCC2)C(C(F)(F)F)C(F)(F)F,Chymotrypsinogen A,"enzyme activity, inhibitor, fluorescence",,,20
OC[C@@H]1[C@@H](O)[C@H](O)[C@@H](O)CN1CCCCCOCc1ccc(-c2ccc(Cl)cc2)cc1,GBA2,"inhibitor, 4MU-β-D-glucopyranoside",HEK293T homogenates overexpressing GBA2,,0.002
Cc1c(Cc2cccc(OC(C)(C)C(=O)O)c2)c2ccc(C(=O)N[C@H](C)c3cccc(C(C)(C)C)c3)cc2n1C,PPARA ligand-binding domain,"reporter gene, luciferase reporter","HEK293T, Gal4-PPARα LBD",,20.1
Cc1ccc2c(c1Br)C(O)(CC(=O)c1ccc3c(c1)OCO3)C(=O)N2 (stereo not shown),"Uncharacterized protein (Trypanosoma brucei brucei, UniProt Q386Q8)","enzyme activity, inhibitor, coupled colorimetric",,added: E. coli pyrophosphatase coupling,42.2
O=C(Nc1ccccc1)c1ccccc1NC(=O)C(C(F)(F)F)C(F)(F)F,Chymotrypsinogen A,"enzyme activity, inhibitor, fluorescence",,,4.4
Cc1c(Cc2ccc(Cl)c(OC(C)C(=O)O)c2)c2ccc(C(=O)NC(C)c3cccc(C(C)(C)C)c3)cc2n1C (stereo not shown),PPARA ligand-binding domain,"reporter gene, luciferase reporter","HEK293T, Gal4-PPARα LBD",,89.9
O=C1NC(=O)C(N2CCc3cc(Cl)ccc32)=C1c1ccccc1,Sensor histidine kinase AirS,"autophosphorylation, inhibitor, BODIPY-FL-ATPγS in-gel fluorescence",,lower bound of confidence interval,> 1000
Cc1nc2ccccc2c(=O)n1N,"Pancreatic alpha-amylase (Homo sapiens, UniProt P04746)","enzyme activity, inhibitor",,,1093 ± 4.95
C[C@@H]1O[C@@H](OC[C@H]2O[C@@H](Oc3c(-c4ccc(O)cc4)oc4cc(O)cc(O)c4c3=O)[C@H](O[C@@H]3O[C@@H](C)[C@H](O)[C@@H](O)[C@H]3O)[C@@H](O)[C@@H]2O)[C@H](O)[C@H](O)[C@H]1O,"PNLIP (Sus scrofa, UniProt P00591)","enzyme activity, inhibitor",,,49.9
Cc1cccc(NC(=O)C(C(F)(F)F)C(F)(F)F)c1,Chymotrypsinogen A,"enzyme activity, inhibitor, fluorescence",,,7.4
COc1ccc(Cl)cc1NC(=O)Nc1ccc(C(N)=O)cn1,"CHEK1 (Homo sapiens, UniProt O14757)","enzyme activity, inhibitor",,,0.0154
OC[C@H]1[C@@H](O)[C@H](O)[C@@H](O)CN1CCCCCOCc1ccc(-c2ccccc2)c(C(F)(F)F)c1,GBA2,"inhibitor, 4MU-β-D-glucopyranoside",HEK293T homogenates overexpressing GBA2,,0.0001
Cn1cc(-c2ccc3[nH]c4c(c3c2)-c2nc(N)ncc2CC4)cn1,PIP4K2C,"target engagement in cells, BRET",,,0.17
CC(C)=CCC/C(C)=C/CC/C(C)=C/COCCCCCN1C[C@H](O)[C@@H](O)[C@H](O)[C@@H]1CO,GBA2,"inhibitor, 4MU-β-D-glucopyranoside",HEK293T homogenates overexpressing GBA2,,0.1
Fc1ccc(Nc2nc(NC3CCCCC3)c3ccccc3n2)cc1F,"ADRB2 (Homo sapiens, UniProt P07550, I159A)","β-arrestin2 recruitment, antagonist, BRET",HEK293,"mutant I159A, added: isoprenaline 1 µM",1
N#Cc1ccccc1-c1ccc(COCCCCCN2C[C@H](O)[C@@H](O)[C@H](O)[C@H]2CO)cc1,GBA2,"inhibitor, 4MU-β-D-glucopyranoside",HEK293T homogenates overexpressing GBA2,,0.005
Cc1nn(-c2cccc(N)c2)c(=O)c2cnc(Nc3ccc(N4CCNCC4)cc3)nc12,"GRK4 (Homo sapiens, UniProt P32298)","enzyme activity, inhibitor",,,2.44
COc1ccc(Cl)cc1NC(=O)C(C(F)(F)F)C(F)(F)F,Chymotrypsinogen A,"enzyme activity, inhibitor, fluorescence",,,6.5
CCCCCN1C[C@H](O)[C@@H](O)[C@H](O)[C@H]1CO,GBA2,"inhibitor, 4MU-β-D-glucopyranoside",HEK293T homogenates overexpressing GBA2,,0.4
N=C(N)SCc1ccccc1CSC(=N)N,"Cytochrome P450 2C8 (CYP2C8, Homo sapiens, UniProt P10632)","enzyme activity, inhibitor",,,> 10
C/C1=C\CC/C(C)=C/CC(C)(C)/C=C/C1,"TRPV1 (Homo sapiens, UniProt Q8NER1, F496Q)","ion current, inhibitor, patch clamp",,,10.4
CCN(CC)CC(=O)Nc1cccc(-n2cc(-c3ccc4ccc(-c5cn(-c6cccc(NC(=O)CN(CC)CC)c6)nn5)cc4c3)nn2)c1,"RET (Homo sapiens, UniProt P07949)","enzyme activity, inhibitor",,,> 10
C[C@H](c1ccccc1)N1C(=O)C2=Nc3cccc(Cl)c3CN2C1=S,"NEK1 (Homo sapiens, UniProt Q96PY6)","enzyme activity, inhibitor",,,0.307
O=C1NC(=O)C(N2CCc3ccccc32)=C1c1ccc(Cl)cc1,Sensor histidine kinase AirS,"autophosphorylation, inhibitor, BODIPY-FL-ATPγS in-gel fluorescence",,lower bound of confidence interval,> 929
O=C(Nc1ccc(F)cc1)Nc1ccc(C2=NNC(c3ccc(NC(=O)Nc4ccc(F)cc4)cc3)C2)cc1 (stereo not shown),"AGER (Homo sapiens, UniProt Q15109)",,,,33
OC[C@@H]1[C@@H](O)[C@H](O)[C@@H](O)CN1CCCCCOCc1ccccc1-c1ccccc1,GBA2,"inhibitor, 4MU-β-D-glucopyranoside",HEK293T homogenates overexpressing GBA2,,0.003
Cc1ccc(C2CC(=O)N2S(=O)(=O)c2cccc(Cl)c2)cc1 (stereo not shown),Chymotrypsinogen A,"enzyme activity, inhibitor, fluorescence",,,0.17
Cc1nc(Nc2ccc3c(c2)/C(=C/c2ccccc2Cl)C(=O)N3C)c2ccccc2n1,PIK3CG,"enzyme activity, inhibitor, ADP detection",,,0.178
CC(C)Oc1cccc(NC(=O)C(C(F)(F)F)C(F)(F)F)c1,Chymotrypsinogen A,"enzyme activity, inhibitor, fluorescence",,,> 100
CN(C)c1ccc(/N=N/c2ccc(C(=O)OCCOCCN)cc2)cc1,IAPP,"ThT displacement, ThT fluorescence",,"pH 7.4, preformed target-ThT complex, added: 5 µM ThT",0.37
Cc1c(Cc2cccc(OC(C)C(=O)O)c2Cl)c2ccc(C(=O)NC(C)c3ccc(C(C)(C)C)cc3)cc2n1C (stereo not shown),PPARA ligand-binding domain,"reporter gene, luciferase reporter","HEK293T, Gal4-PPARα LBD",,0.86
COCCN(C)CC(=O)NC(Cc1ccc(-c2ccccc2)cc1)B(O)O (stereo not shown),"Proteasome subunit beta type-3/PSMB7 (Homo sapiens, UniProt P49720+Q99436)","β2c trypsin-like activity, inhibitor",,"constitutive proteasome, added: Ac-KQL-AMC",> 10
O=C(Nc1ccccc1O)C(C(F)(F)F)C(F)(F)F,Chymotrypsinogen A,"enzyme activity, inhibitor, fluorescence",,,38
Cc1c(Cc2cccc(OC(C)(C)C(=O)O)c2)c2ccc(C(=O)N[C@@H](C)c3cccc(C4CC4)c3)cc2n1C,PPARA ligand-binding domain,"reporter gene, luciferase reporter","HEK293T, Gal4-PPARα LBD",,3.17
COc1c(Cl)cccc1Nc1c(-c2ccncc2C#C[C@@]2(C)CCCN2C(=O)/C=C/CN(C)C)[nH]c2c1C(=O)NCC2,MAPK14,,,,0.18
CC(=O)NCCOc1ccccc1NC(=O)C(C(F)(F)F)C(F)(F)F,Chymotrypsinogen A,"enzyme activity, inhibitor, fluorescence",,,90

# Repeated from above:
Structure (SMILES),target,test,system,setting,IC50 [µM]
Fc1ccc(Nc2nc(NC3CCCCC3)c3ccccc3n2)cc1F,"ADRB2 (Homo sapiens, UniProt P07550, I159A)","β-arrestin2 recruitment, antagonist, BRET",HEK293,"mutant I159A, added: isoprenaline 1 µM",1
O=C1Nc2c(Br)cccc2/C1=C1/Nc2ccccc2C1=NO,MAPK14,,,,> 10
OC[C@H]1[C@@H](O)[C@H](O)[C@@H](O)CN1CCCCCOCC(COCCCCCN1C[C@H](O)[C@@H](O)[C@H](O)[C@@H]1CO)C12CC3CC(CC(C3)C1)C2 (stereo partly shown),GBA2,"inhibitor, 4MU-β-D-glucopyranoside",HEK293T homogenates overexpressing GBA2,,0.15
C[C@H](c1ccccc1)N1C(=O)C2=Nc3cccc(Cl)c3CN2C1=S,"NEK1 (Homo sapiens, UniProt Q96PY6)","enzyme activity, inhibitor",,,0.307
CC(C)=CCC/C(C)=C/CC/C(C)=C/COCCCCCN1C[C@H](O)[C@@H](O)[C@H](O)[C@@H]1CO,GBA2,"inhibitor, 4MU-β-D-glucopyranoside",HEK293T homogenates overexpressing GBA2,,0.1
N=C(N)SCc1ccccc1CSC(=N)N,"Cytochrome P450 2C8 (CYP2C8, Homo sapiens, UniProt P10632)","enzyme activity, inhibitor",,,> 10
